# Measurements collected from several papers.
# Every numbered part comes from another study and shows a few of its results, in no order.

# Set 1
# Target: Sal-like protein 4, full length isoform B (SALL4, Homo sapiens, UniProt Q9UJQ4-2, residues 1-616)
# Technique: universal PBM
# Molecule type: double-stranded DNA, one strand shown
# Medium: in vitro
# Concentration: not given
# Setting: 8-mer, flanks averaged, mean of replicates
# Reading: higher = stronger binding
Oligonucleotide,E-score
CTGTAAAC,0.226
CACTAAAG,0.0136
CGTCTCAC,-0.244
ACAGATAG,0.0989
ACTGGAAC,-0.106
AATAACGG,0.296
CAATTTGA,0.256
AGGGCCAT,-0.212
AGCAGGAT,-0.114
AGAGTCCC,-0.192
GGCATACA,0.0619
GGGCCATA,-0.0392
CGAAAGCA,-0.0197
AAATGGTT,0.199
CCATTCGA,-0.00786
ACTATACG,0.136
CTGGAGAC,-0.268
TCAAATAA,0.317
CTTCTATA,0.239
GCCCCAGC,-0.284
CTACCGAC,-0.134

# Set 2
# Target: Ras GTPase-activating protein-binding protein 1, full length (G3BP1, Homo sapiens, UniProt Q13283)
# UniProt Q13283, sequence (whole entry, looked up): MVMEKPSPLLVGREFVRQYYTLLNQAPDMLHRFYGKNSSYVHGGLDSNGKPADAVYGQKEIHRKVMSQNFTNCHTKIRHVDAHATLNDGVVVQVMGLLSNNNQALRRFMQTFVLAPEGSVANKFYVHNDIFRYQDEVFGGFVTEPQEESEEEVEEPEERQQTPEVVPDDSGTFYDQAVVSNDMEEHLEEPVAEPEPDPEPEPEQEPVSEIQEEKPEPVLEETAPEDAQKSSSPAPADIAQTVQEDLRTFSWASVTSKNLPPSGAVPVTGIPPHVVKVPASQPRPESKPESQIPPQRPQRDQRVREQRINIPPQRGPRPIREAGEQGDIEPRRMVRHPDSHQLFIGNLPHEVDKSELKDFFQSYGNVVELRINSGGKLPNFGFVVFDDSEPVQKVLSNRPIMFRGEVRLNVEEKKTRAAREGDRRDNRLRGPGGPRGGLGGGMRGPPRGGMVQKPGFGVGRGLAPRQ
# Technique: RNA Bind-n-Seq
# Molecule type: RNA
# Medium: in vitro
# Concentration: 200 nM
# Setting: whole 134-nt RNA, ends assumed
# Together with: 150 mM KCl
# Baseline: input library
# Reading: higher = stronger binding
# Shared flanks, not repeated: GGGAGUUCUACAGUCCGACGAUC … UGGAAUUCUCGGGUGUCAAGG
Oligonucleotide,log2 enrichment
AAGUCCUGUGCUACACAUCGUAUGUACCGAAUCGGCCCGGGGCCCGGGGCCCGGGGAAAGUAUUAUGUUACGCCGUUCGGAUCUGCACUU,-1.09
UCCUGUGCUACACAUCGUAUGUACCGAAUCGGGUUUUUUGGGUUUUUUGGGUUUUUUGGAAAGUAUUAUGUUACGCCGUUCGGAUCUGCA,-0.444
UGGGAGGUGGAUUUUGUUUAUUUUUUUAGCACAUUUCCAGGGGUGGGAAUUUUUUUUUAAUAUGUGUCAUGAAUAAAGUUGUUUUUGAAA,0.128
AAGUCCUGUGCUACACAUCGUAUGUACCGAAUCGGGGAAAAGGGAAAAGGAAAAGGGAAAGUAUUAUGUUACGCCGUUCGGAUCUGCACU,-0.541
CUCAAGUCCUGUGCUACACAUCGUAUGUACCGAAUCGGAGGAAAGGAAAAAGGAAAGUAUUAUGUUACGCCGUUCGGAUCUGCACUUCCA,-0.444
UCCUGUGCUACACAUCGUAUGUACCGAAUCGGGAAAAAAAGGGAAAAAAAGGGAAAGGGAAAGUAUUAUGUUACGCCGUUCGGAUCUGCA,-0.313
UCCUGUGCUACACAUCGUAUGUACCGAAUCGGGUUUUUUUGGGAAAGGGUUUUUUUGGGAAAGUAUUAUGUUACGCCGUUCGGAUCUGCA,-0.408
CCUCAAGUCCUGUGCUACACAUCGUAUGUACCGAAUCGGGAGGGAGGGAGGGAAAGUAUUAUGUUACGCCGUUCGGAUCUGCACUUCCAG,1.47
CACAGACAACACGCACCCACACAGACACAGAGGGAAGGGGUUGGGAUGGGGACAGGGUGCACAGCAGGGCGGGGUAGCACCCCAGCCCCU,1.92

# Set 3
# Target: RNA binding protein fox-1 homolog 2, RRM domain, GST-SBP tag (RBFOX2, Homo sapiens, UniProt O43251-10, residues 100-194)
# Technique: RNA Bind-n-Seq
# Molecule type: RNA
# Medium: in vitro
# Concentration: 365 nM
# Setting: natural RNA segment, single round, ends assumed
# Baseline: no-protein control
# Reading: higher = stronger binding
# Shared flanks, not repeated: GGGAGUUCUACAGUCCGACGAUC … UGGAAUUCUCGGGUGCCAA
# Construct (chain): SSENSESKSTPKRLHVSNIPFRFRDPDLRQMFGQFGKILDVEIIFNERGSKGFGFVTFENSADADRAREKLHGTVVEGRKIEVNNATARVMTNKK
Oligonucleotide,RBNS enrichment (R)
UCUAUCCCCUCUUCUUGUAAAGCACAAGCCGGGGGCCGUGAGUGUAUUACAACCCAACGGCGGCCCAUCUUCAACGGAAAGCGAGAACCAUUUUGGAAACUGUCAUGUAA,0.38
CGCAUUUUUGCAUGGUAAGGAAAAGGCUUACUUGCCCUUCAGCUCAUAAAAGCAGAAGGUGUGCUAUUCACAGUACCAUGCGAGUAGCCCACAGUUAAUUCCCGGCAGAU,0.934
GUUUCUAAAAAAUGAACAUGAAAAAAAUAAGGUAUUUUCUCCCUAGCUUCUCAUUACAGUAUUUCUAAUUGCUUCACACUUUACAGUUUUAAUACAAAGUACAAGCUCUA,0.509
ACUAGUCAGGUACCGUUUUAUCCCAGUCGUACUCUUCCAGGUUUGGAAGACCCAGAGAGGCCAAGAUCCCAUCCUUAGCCAUAGCGAGCGGUGGUGGUGGAUAGCAUCAC,0.294
CAGUUAUCAGUAAUUCCUGCCCAGAAGACUUUUAUUUAUUUUUUUUUAAGAUAAAAACUGCACAAAAGGGGAGUGAGAGAGACUAGUUUCCACAUCCUUCCCUCCUUUAG,0.47
GCGCCCCCCCCAUUCUUGUUCAGAUUAAGAGUUGCCAAAAUACCUUCUGAACUACACUGCAUUGUUGUGCCGAGAACACCGAGCACUGAACUUUGCAAAGACCUUCGUCU,0.391
CGGCCCCCAGCACCAAAGCUUAGCCAAGGCAGAGGCGGAUGCCUCUGGAAAUCUAACCAAAGAGUCCCCAGACACCAACGGACCAAAGCUAACCGAGGAAGGAGAUGCCC,0.362
UAUGAGUUAAUGUGAAGUUGUAAAUGGGAAUCUAUAGCAAUGAUGUCUGUAUAAAUCUGUCUUAUCUAGAACUUGUGCUGUCAGGGCACUCUUCCUCACGCUGUUGUUAC,0.758
GGGAUUUAGUGCCCUGUCUCCCUGUCUCUAGAAGCCUUAGCCUGGGCACCUGGCUCAAUCUUGUAACUGCCUGCUAGCCAUAGAUUCCUUUCAGCCUUGCUGACUUCUCC,1.25
CAGGUUAGAAGAACCUGACAUCCACUGUUUGCCUUGGAUAGUAUGGCUUGUUUUUGGAAAGAAAUUCUGAAGAGAGUGGAGGAGAGGAGAAAUGUCCUCAUAUUUGAGGA,0.738
AUCUGUAAGAUUGUAUGCUGUAUAUACCGUUCUAUUGAGAAACAUGUACACAUGUCUGUCUACUGUGCUUUCAGACAUAGAUAAAGCAUGAUAAAGAUUAUUAUUUAAGA,12.6
AUUUCUCAUGUCUUGAGGUUUUGUUCAUGCCCCUAUGACUGACCAAUGUGAUAAGGACUUUAAAAAAGAAGCAUGUAUGUUUUUUACUGUUUGUAAGAAGUACUUUCGUU,2.86

# Set 4
# Target: Histone acetyltransferase KAT6A, both winged helices, GST fusion (KAT6A, Homo sapiens, UniProt Q92794, residues 1-181)
# Technique: protein binding microarray
# Molecule type: double-stranded DNA, one strand shown
# Medium: in vitro
# Concentration: not given
# Setting: 8-mer, flanks averaged, mean of 2 arrays, mostly near background
# Baseline: not given
# Reading: higher = stronger binding
# Residues (chain): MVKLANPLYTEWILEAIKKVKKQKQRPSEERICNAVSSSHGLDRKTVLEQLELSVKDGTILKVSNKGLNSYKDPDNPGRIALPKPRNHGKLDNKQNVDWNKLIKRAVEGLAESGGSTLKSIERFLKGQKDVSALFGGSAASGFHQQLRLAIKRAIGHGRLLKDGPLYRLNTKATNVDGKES
Oligonucleotide,E-score
AGATGGCA,-0.0534
CCTACATC,-0.0775
GAACTGTA,0.113
TCATGAAA,-0.0161
AGCTGTTA,-0.0469
CCCAGTGA,-0.246
ACTAGCTA,-0.0589
CGGTGTCA,0.145
GGTTGTCA,-0.103
CGGCCTAA,0.141
AGCCGCGC,0.348
CCCATGAA,-0.192
CTCTACAG,-0.0929
AAGCTTGA,-0.102
TAAAAATA,-0.183
GGTAGGGA,-0.0951
GGGCCCAC,-0.0556
AATAATCA,0.0791
CCGTATAA,0.243
CTAAATGC,-0.0644
ACGCCGCA,0.276
ATCCATGA,-0.231
AGTAGCCG,0.186
CTAGGTCC,0.0106
AATTGTGA,-0.0824

# A few entries again (set 1):
Oligonucleotide,E-score
GGCATACA,0.0619
CACTAAAG,0.0136
GCCCCAGC,-0.284
CAATTTGA,0.256
TCAAATAA,0.317
CTTCTATA,0.239
